Published values pooled from the literature.
Each line is one published result; not all experiments were run side by side. ± marks the error that the study gave.
CYP2D6: Cytochrome P450 2D6 (CYP2D6, Homo sapiens, UniProt P10635)
Sequence of UniProt P10635 (whole entry, looked up): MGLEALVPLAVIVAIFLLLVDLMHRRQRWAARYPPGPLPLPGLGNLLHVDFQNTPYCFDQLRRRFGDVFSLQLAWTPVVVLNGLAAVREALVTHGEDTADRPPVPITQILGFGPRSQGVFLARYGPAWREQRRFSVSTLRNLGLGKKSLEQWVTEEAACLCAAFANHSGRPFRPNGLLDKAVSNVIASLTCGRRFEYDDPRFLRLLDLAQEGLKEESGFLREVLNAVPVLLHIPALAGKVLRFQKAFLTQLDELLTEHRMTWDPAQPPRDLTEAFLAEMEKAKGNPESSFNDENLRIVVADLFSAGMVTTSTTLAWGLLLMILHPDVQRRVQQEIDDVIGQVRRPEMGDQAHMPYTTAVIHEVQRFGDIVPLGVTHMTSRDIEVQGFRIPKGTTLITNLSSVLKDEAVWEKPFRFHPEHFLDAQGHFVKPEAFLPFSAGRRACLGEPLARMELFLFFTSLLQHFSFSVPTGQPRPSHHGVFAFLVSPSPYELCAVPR
Sequence of UniProt P08684 (whole entry, looked up): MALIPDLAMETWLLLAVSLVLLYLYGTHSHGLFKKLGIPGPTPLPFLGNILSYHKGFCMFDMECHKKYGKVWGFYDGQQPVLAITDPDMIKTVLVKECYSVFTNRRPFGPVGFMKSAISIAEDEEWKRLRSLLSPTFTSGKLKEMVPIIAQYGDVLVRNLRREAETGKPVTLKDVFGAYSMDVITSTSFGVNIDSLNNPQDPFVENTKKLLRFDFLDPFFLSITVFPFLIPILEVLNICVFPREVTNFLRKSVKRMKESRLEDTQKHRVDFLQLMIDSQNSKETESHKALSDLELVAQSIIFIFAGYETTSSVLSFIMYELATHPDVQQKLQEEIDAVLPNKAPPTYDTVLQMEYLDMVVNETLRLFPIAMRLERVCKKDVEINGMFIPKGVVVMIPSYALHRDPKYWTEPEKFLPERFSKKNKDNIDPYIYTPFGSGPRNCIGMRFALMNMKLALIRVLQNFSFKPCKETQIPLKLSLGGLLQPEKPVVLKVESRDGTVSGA

The tissue/plasma ratio of `[123I]c1cncc(OC[C@@H]2CCN2)c1` is reported as 12.2 (SPECT; human, temporal lobe; intravenous bolus plus infusion, 7.8 mCi; relative to: plasma).
For `CCCCCc1cc(O)c2c(c1)OC(C)(C)[C@@H]1CCC(C)=C[C@@H]21`, “M3 formation rate reduction” read > 70% (recombinant human CYPs; substrate; 10 µM; relative to: CYP3A4).
The tracer uptake of `CN[C@@](C)(C[18F])C(=O)O` is reported as 2 %ID/g (MDA-MB-468 tumour model; host not given, lung; 30 min, tumour-bearing).
`Cc1ncc2n1-c1ccc(Cl)cc1C(c1ccccc1F)=NC2` — result for “glucuronide metabolic ratio”: “decreased” (UDP-glucuronosyltransferases; human cirrhosis patients; relative to: without cirrhosis).
The inhibition of `CNC(=O)O/N=C/C(C)(C)[S+](C)[O-]` (centres unmarked) is reported as 6.74% (CYP2D6; inhibitor; human liver microsomes; 10 µM, pH 7.4, added: dextromethorphan).
With `C[C@H]1CNCCc2ccc(Cl)cc21` the AUC(0-t) was 48.9 ± 2.71 ng·h/mL (male Sprague-Dawley rat, plasma; subcutaneous, pimavanserin 1 + lorcaserin 1 mg/kg, pimavanserin 15 min earlier).
`CC[C@@H]1CN2CCc3c([nH]c4cccc(OC)c34)[C@H]2C[C@@H]1/C(=C\OC)C(=O)OC` has an IC50 of > 45 µM (CYP2D6; enzyme activity, inhibitor; human, liver microsomes).
The Km of `C[C@]12CC[C@H](OS(=O)(=O)O)CC1=CC[C@@H]1[C@@H]2CC[C@]2(C)C(=O)CC[C@@H]12` is reported as 18.1 ± 3.1 µM (sulfatase, human liver microsomes; substrate; pH 7.4, 37 °C).
For `CNC(=O)O/N=C/C(C)(C)SC`, the inhibition was 5.47% (CYP2D6; inhibitor; human liver microsomes; 10 µM, pH 7.4, added: dextromethorphan).
`Cc1ncc2n1-c1ccc(Cl)cc1C(c1ccccc1F)=NC2` has an AUC(0-inf) of 20.7 ng·h/mL (Cytochrome P450 3A4 (CYP3A4, Homo sapiens, UniProt P08684); human, plasma; oral, 2 mg, alone, geometric LS mean).
`CNC(=O)O/N=C/C(C)(C)S(C)(=O)=O` has an inhibition of 2.69% (CYP2D6; inhibitor; human liver microsomes; 2 µM, pH 7.4, added: dextromethorphan).
The IC50 of `C=C[C@H]1CN2CCc3c([nH]c4cccc(OC)c34)[C@@H]2C[C@@H]1/C(=C\OC)C(=O)OC` is reported as 6 µM (CYP2D6; enzyme activity, inhibitor; human, liver microsomes).
`OCc1ncc2n1-c1ccc(Cl)cc1C(c1ccccc1F)=NC2`: “glucuronide metabolic ratio” “decreased” (UDP-glucuronosyltransferases; human cirrhosis patients; relative to: without cirrhosis).
`CNC1(c2ccccc2Cl)CCCCC1=O` (centres unmarked) has an IC50 of > 1000 µM (UDP-glucuronosyltransferase, human; 4-MU glucuronidation, inhibitor; human liver microsomes; 30 min, pH 7.4, added: 4-methylumbelliferone 100 µM).
